Results pooled from the literature.
Protocols differ between the studies behind these lines. Several values in a cell are separate wells, animals, samples, runs or records. ± marks the error that the study gave.

| SMILES | target or system | test | test system | setting | how to read | quantity | result |
| --- | --- | --- | --- | --- | --- | --- | --- |
| O=C(N/N=C/c1cc[n+](Cc2ccccc2)c2ccccc12)N/N=C/c1cc[n+](Cc2ccccc2)c2ccccc12 | 22CTA telomeric G4-DNA antiparallel | FRET melting | – | 1 µM, K10 buffer, DNA 0.2 µM, added: ds26 10 µM | – | ΔTm | 9.1 ± 0.6 °C |
| Cc1cn(CC(=O)N(CC(=O)N[C@H]2COC[C@@H]2N(CC(=O)NCCOCCOCC(N)=O)C(=O)Cn2cnc3c(N)ncnc32)[C@H]2COC[C@@H]2NC(=O)CN(C(=O)Cn2cnc3c(N)ncnc32)[C@H]2COC[C@@H]2NC(=O)CN(C(=O)Cn2cnc3c(=O)[nH]c(N)nc32)[C@H]2COC[C@@H]2NC(=O)CN(C(=O)Cn2cc(C)c(=O)[nH]c2=O)[C@H]2COC[C@@H]2NC(=O)CN(C(=O)Cn2cnc3c(=O)[nH]c(N)nc32)[C@H]2COC[C@@H]2NC(=O)CN(C(=O)Cn2cc(C)c(=O)[nH]c2=O)[C@H]2COC[C@@H]2NC(=O)CN(C(=O)Cn2cnc3c(N)ncnc32)[C@H]2COC[C@@H]2NC(=O)CN(C(=O)Cn2cnc3c(=O)[nH]c(N)nc32)[C@H]2COC[C@@H]2N)c(=O)[nH]c1=O | mismatched RNA TU | duplex formation, UV melting | – | – | baseline: complementary RNA | ΔTm | -18.2 °C |
| Cn1ccc2cc(-n3c(=O)[nH]c4sc5c(c4c3=O)CCCC5)ccc21 | rat P2X receptor | radioligand binding | – | 10 µM | – | inhibition | 7% |
| C[n+]1cccc2cc(/C=N/NC(=O)c3cccc(C(=O)N/N=C/c4ccc5c(ccc[n+]5C)c4)c3)ccc21 | 22CTA telomeric G4-DNA antiparallel | FRET melting | – | 1 µM, K10 buffer, DNA 0.2 µM, added: ds26 10 µM | – | ΔTm | 5.2 ± 0.3 °C |
| Nc1ncc(-c2cc(-c3cnn(CC(F)(F)F)c3)ncc2F)nc1C(=O)NC1CNCC(F)C1 (stereo not drawn) | ZAP70 | KINOMEscan | – | 1 µM | baseline: DMSO control | remaining binding | 74% |
| Cc1[nH]nc2c1N=C(c1ccccc1Cl)c1cnc(N3CCOCC3)cc1N2 | thyroid hormone receptor, rat | radioligand binding | – | 10 µM | – | inhibition | -2% |
| CC(=O)c1cnc(N)nc1N1CC[C@H]1c1nn2ccc(Cl)c2c(=O)n1-c1ccccc1 | PI3Kβ | KiNativ | monkey white blood cell lysate | 1 µM | – | binding | 69.6% |
| c1ccc(-c2n[nH]cc2-c2ccnc3ccccc23)nc1 | CKA1 (Candida albicans) | kinase binding, MIB/MS competition | Candida albicans lysate | 1 µM | baseline: DMSO | log2 fold change | -0.08 |
| CN1CCC(c2ccc(-c3ccc([C@H]4[C@@H](F)[C@@H](F)C[C@@H](F)[C@H]4F)cc3)cn2)CC1 | – | hepatocyte stability | cryopreserved human hepatocytes | 1 µM | – | hepatic clearance | 9.5 mL/min/kg |
| C[n+]1ccc(/C=N/NC(=O)c2cccc(C(=O)N/N=C/c3cc[n+](C)c4ccccc34)n2)c2ccccc21 | 22CTA telomeric G4-DNA antiparallel | FRET melting | – | 1 µM, K10 buffer, DNA 0.2 µM | – | ΔTm | 20.9 ± 0.1 °C |
| OC[C@H]1O[C@@H]2O[C@H]3[C@H](O)[C@@H](O)[C@@H](O[C@H]4[C@H](O)[C@@H](O)[C@@H](O[C@H]5[C@H](O)[C@@H](O)[C@@H](O[C@H]6[C@H](O)[C@@H](O)[C@@H](O[C@H]7[C@H](O)[C@@H](O)[C@@H](O[C@H]1[C@H](O)[C@H]2O)O[C@@H]7CO)O[C@@H]6CO)O[C@@H]5CO)O[C@@H]4CO)O[C@@H]3CO | LuxR | Escherichia coli sensor | – | 100 µM | higher = stronger induction | bioluminescence induction | 813 ± 92 RLU |
| O=C(c1ccc([C@H]2[C@@H](F)[C@@H](F)C[C@@H](F)[C@H]2F)cc1)N1CCCC1 | – | hepatocyte stability | cryopreserved mouse hepatocytes | 1 µM | – | hepatic clearance | 81 mL/min/kg |
| N#Cc1ccc(-c2cnc(C(=O)CCCCCCc3ccccc3)o2)nc1 | fatty-acid amide hydrolase (mouse) | refers to: anandamide levels | mouse, brain | i.p., dose not given | – | inhibition | > 90% |
| O=C(N/N=C/c1cc[n+](Cc2ccccc2)c2ccccc12)c1cc(C(=O)N/N=C/c2cc[n+](Cc3ccccc3)c3ccccc23)ncn1 | 22CTA telomeric G4-DNA antiparallel | FRET melting | – | 1 µM, K10 buffer, DNA 0.2 µM | – | ΔTm | 13.2 ± 0.7 °C |
| C=CC(=O)Nc1cccc(Cn2ncc3cnc(Nc4cnn(CCOC)c4)nc32)c1 | HUNK human | binding, KINOMEscan | – | 100 nM | lower = stronger binding | percent of control | 100% |
| CCN1CCC(CCNCc2cc3ccccc3nc2SCc2ccccc2)CC1 | electron transport chain | proton pumping, ACMA quenching | Pseudomonas aeruginosa inverted membrane vesicles | 32 µg/mL, added: NADH | – | inhibition | 67% |
| CCC(=O)N(C)c1ccc(Cl)c(Cl)c1 | somatostatin receptor, non-selective | radioligand binding | – | 10 µM | – | inhibition | < 10% |
| O=C(N/N=C/c1ccc2c(ccc[n+]2Cc2ccccc2)c1)c1cncc(C(=O)N/N=C/c2ccc3c(ccc[n+]3Cc3ccccc3)c2)n1 | 22CTA telomeric G4-DNA antiparallel | FRET melting | – | 1 µM, K10 buffer, DNA 0.2 µM | – | ΔTm | 17.4 ± 0.3 °C |
| C=CC(=O)N1[C@@H](c2ccc3c(c2)OCO3)c2[nH]c3ccccc3c2C[C@H]1C(=O)N1CCN(C)CC1 | CCNE1 WT-3xFLAG:CDK2 complex | co-IP TMT proteomics, refers to: ANKRD17 | HEK-293T | 20 µM, 6 h | baseline: DMSO | log2 fold change | -0.14 |
| O=C(N/N=C/c1cc[n+](CC2CC2)c2ccccc12)c1ccc2ccc3ccc(C(=O)N/N=C/c4cc[n+](CC5CC5)c5ccccc45)nc3c2n1 | 22CTA telomeric G4-DNA antiparallel | FRET melting | – | 1 µM, K10 buffer, DNA 0.2 µM, added: ds26 10 µM | – | ΔTm | 16.2 ± 1.7 °C |
| O=c1c(Oc2ccccc2)c(C(F)(F)F)oc2c(O)c(O)ccc12 | ROC1-CUL1 E3 subcomplex | di-ubiquitin synthesis | – | 30 µM | baseline: input | di-ubiquitin formed | 47% |
| O=C(N/N=C/c1cc[n+](CC2CC2)c2ccccc12)c1cccc(C(=O)N/N=C/c2cc[n+](CC3CC3)c3ccccc23)n1 | 22CTA telomeric G4-DNA antiparallel | FRET melting | – | 1 µM, K10 buffer, DNA 0.2 µM, added: ds26 10 µM | – | ΔTm | 17.9 ± 0.5 °C |
| CC(C)Oc1cc(Cl)ccc1CNc1cc(-c2ccccc2)nc2ncnn12 | endogenous β-adrenergic receptors | cAMP level, cAMP GloSensor | mock-transfected cells | 100 pM, added: isoprenaline 30 nM | higher = more cAMP | cAMP luminescence | 23300 a.u. and 28500 a.u. and 24000 a.u. |
| O=c1c(-c2cnn(-c3ccc(Cl)cc3)c2)c(C(F)(F)F)oc2c(O)c(O)ccc12 | ROC1-CUL1 E3 subcomplex | Cdc34-ubiquitin discharge | – | 37.5 µM | baseline: input | Cdc34b-ubiquitin remaining | 3.5% |

Repeated from above:
| SMILES | target or system | test | test system | setting | how to read | quantity | result |
| --- | --- | --- | --- | --- | --- | --- | --- |
| CCN1CCC(CCNCc2cc3ccccc3nc2SCc2ccccc2)CC1 | electron transport chain | proton pumping, ACMA quenching | Pseudomonas aeruginosa inverted membrane vesicles | 32 µg/mL, added: NADH | – | inhibition | 67% |
| CCC(=O)N(C)c1ccc(Cl)c(Cl)c1 | somatostatin receptor, non-selective | radioligand binding | – | 10 µM | – | inhibition | < 10% |
| O=C(N/N=C/c1ccc2c(ccc[n+]2Cc2ccccc2)c1)c1cncc(C(=O)N/N=C/c2ccc3c(ccc[n+]3Cc3ccccc3)c2)n1 | 22CTA telomeric G4-DNA antiparallel | FRET melting | – | 1 µM, K10 buffer, DNA 0.2 µM | – | ΔTm | 17.4 ± 0.3 °C |
